# Results of several laboratories.
# Each line is one published result; not all experiments were run side by side. Several values in a cell are separate wells, animals, samples, runs or records. Numbers after ± are the reported error.
Compound,test,test system,conditions,AUC(0-t)
Cc1nc2cccc(N)c2c(=O)n1C1CCC(=O)NC1=O (stereo not shown),,"healthy adult human, plasma","oral, 3 mg, geometric mean, added: itraconazole 200 mg once daily",0.679 µg·h/mL
CCn1c(=O)c2c(nc(/C=C/c3ccc(OC)c(OC)c3)n2C)n(CC)c1=O,,"healthy human, plasma","oral, 40 mg single dose, geometric mean, added: rifampin 600 mg/day steady state",1.97 µg·h/mL
Cl.NCCc1c[nH]c(=S)n1[C@H]1COc2c(F)cc(F)cc2C1,,"human male, fed high-fat meal, plasma","oral, 200 mg single dose, arithmetic mean",1.74 µg·h/mL
Cc1ccc(NC(=O)c2ccc(CN3CCN(C)CC3)cc2)cc1Nc1nccc(-c2cncc(-c3oncc3C)c2)n1,,"older healthy human adults, plasma","oral, 175 mg single dose, fed, mean",170 µg·h/mL
CC(C)[C@@H](CS(=O)(=O)C(C)C)N1C(=O)[C@@](C)(CC(=O)O)C[C@H](c2cccc(Cl)c2)[C@H]1c1ccc(Cl)cc1,,"human, plasma","oral, 60 mg, old tablet, fasted, arithmetic mean",2.98 µg·h/mL
CCCCC1(CCCC)CN(c2ccccc2)c2cc(SC)c(OCC(=O)N[C@@H](C(=O)NCC(=O)O)c3ccccc3)cc2S(=O)(=O)C1,,"human, plasma","oral, 15 mg, before breakfast",0.00151 µg·h/mL
Cc1cc(-c2nnc(N)nc2-c2ccc(F)cc2)cc(Cl)n1,,"human patients, plasma","oral, 200 mg capsule, single dose, arithmetic mean",7.17 µg·h/mL
CC(C)c1nc(N(C)S(C)(=O)=O)nc(-c2ccc(F)cc2)c1/C=C/[C@@H](O)C[C@@H](O)CC(=O)O,,"humans, plasma","oral, 20 mg, geometric mean, added: fenebrutinib 200 mg twice daily",0.226 µg·h/mL
CN[C@@H]1COc2c(S(=O)(=O)NC(=O)Nc3c4c(cc5c3CCC5)CCC4)cnn2C1,,human,"oral, 600 mg, high-fat meal, geometric LS mean",147 µg·h/mL
Cc1[nH]c(/C=C2\C(=O)Nc3ccccc32)c(C)c1CCC(=O)O,,human patients,"oral, 400 mg/m^2 twice daily, after meal, dose 55",32 ± 11.3 µg·h/mL
O=C(NCCN1CCCC1)c1cc(-c2ccc(CN3CCOCC3)cc2)nc2ccc(F)cc12,LC-MS/MS,"human, whole blood","oral, 100 mg, single dose, geometric mean",1.25 µg·h/mL
CC(=O)c1c(C)c2cnc(Nc3ccc(N4CCNCC4)cn3)nc2n(C2CCCC2)c1=O,,human,"oral, 50 mg/m^2 repeated doses, day 21",1.52 µg·h/mL
CC(C)NC[C@@H](C(=O)N1CCN(c2ncnc3c2[C@H](C)C[C@H]3O)CC1)c1ccc(Cl)cc1,,"human, hepatic impairment Mild (Child-Pugh), plasma","oral, 100 mg single, geometric mean",0.284 µg·h/mL
CN(C)Cc1c(C(=O)NCCOc2ccc(C(=O)NO)cc2)oc2ccccc12,,"human, plasma","oral, 40 mg single dose",0.159 ± 0.0121 µg·h/mL
N[C@@H](Cc1ccc(O)c(O)c1)C(=O)O,,"human, plasma","oral, 150 mg single, geometric LS mean, added: 37.5 mg carbidopa",3.86 µg·h/mL
CN(Cc1cnc2nc(N)nc(N)c2n1)c1ccc(C(=O)N[C@@H](CCC(=O)O)C(=O)O)cc1,,"human, both sexes, plasma","oral, 20 mg, day 1, alone, arithmetic mean",2.95 µg·h/mL
C/C(=C\c1csc(C)n1)[C@@H]1C[C@@H]2O[C@]2(C)CCC[C@H](C)[C@H](O)[C@@H](C)C(=O)C(C)(C)[C@@H](O)CC(=O)N1,LC-MS/MS,"human, plasma","intravenous infusion, 70 mg, 3 h infusion",2.25 µg·h/mL
COc1cc2ncnc(Nc3ccc(F)c(Cl)c3)c2cc1OCCCN1CCOCC1,,"human, plasma","oral, 250 mg, added: vorinostat 300 mg",0.0034 ± 0.00105 µg·h/mL
CCc1nc(C(N)=O)c(Nc2ccc(N3CCC(N4CCN(C)CC4)CC3)c(OC)c2)nc1NC1CCOCC1,,"healthy humans, after high-fat breakfast, plasma","oral, 40 mg, single dose",1.84 µg·h/mL
O=c1[nH]c(=O)c(Cc2cccc(C(F)(F)F)c2)c([C@H]2CC[C@H](c3ccccc3)CC2)[nH]1,,"human, fasted, plasma","oral, 300 mg single dose, geometric mean",2.94 µg·h/mL
CCCc1nn(C)c2c(=O)[nH]c(-c3cc(S(=O)(=O)N4CCN(C)CC4)ccc3OCC)nc12,,"human, male, plasma","oral, dose not given, day 8, added: sacubitril/valsartan",0.559 µg·h/mL
COc1c(N2C[C@@H]3CCCN[C@@H]3C2)c(F)cc2c(=O)c(C(=O)O)cn(C3CC3)c12,,human,"oral, 400 mg single dose, geometric mean",20.9 µg·h/mL
COc1cc2c(cc1OC)[C@H]1CC(=O)[C@H](CC(C)C)CN1CC2 (racemic),,"human CYP2D6 extensive metabolizers, plasma","oral, 25 mg, fasted, arithmetic mean",0.00018 µg·h/mL
COC(=O)C(c1ccccc1Cl)N1CCC(S)C(=CC(=O)O)C1 (stereo not shown),,"human patients, CYP3A4 wt/wt, plasma","oral, 75 mg clopidogrel daily, day 7, median",0.00759 µg·h/mL
CCCS(=O)(=O)N[C@H]1C[C@@H](N(C)c2ncnc3[nH]ccc23)C1,,"humans, normal hepatic function","oral, 200 mg single",5.55 µg·h/mL
CC[C@H](C)[C@H](NC(=O)[C@H](Cc1ccc(O)cc1)NC(=O)[C@@H](NC(=O)[C@@H](N)CCCNC(=N)N)C(C)C)C(=O)N[C@@H](Cc1c[nH]cn1)C(=O)N1CCC[C@H]1C(=O)N[C@@H](Cc1ccccc1)C(=O)N[C@@H](Cc1c[nH]cn1)C(=O)N[C@@H](CC(C)C)C(=O)O,,"healthy humans, plasma","oral, 0.08 mg/kg single dose, 0 to 12 h",0.079 ± 0.0489 µg·h/mL
O=C(O)CC[C@H]1CC[C@@](c2cc(F)ccc2F)(S(=O)(=O)c2ccc(Cl)cc2)CC1,,"human patients, plasma","oral, 1000 mg/m2/week",1400 to 2910 µg·h/mL
COc1c(OCCCN2CCOCC2)ccc2c1N=C(NC(=O)c1cnc(N)nc1)N1CCN=C21,,"human cancer patients, plasma","intravenous, 0.6 mg/kg weekly, cycle 1 day 15, geometric mean, added: refametinib 30 mg twice daily",0.619 µg·h/mL
CCS(=O)(=O)N1CC(CC#N)(n2cc(-c3ncnc4[nH]ccc34)cn2)C1,,"healthy Chinese human subjects, plasma","oral, 10 mg, single dose, mean",0.775 µg·h/mL
Cc1cc(C)c2c(c1)[C@@H](N(Cc1cc(C(F)(F)F)cc(C(F)(F)F)c1)c1nnn(C)n1)CCCN2C[C@H]1CC[C@H](C(=O)O)CC1,,"human, plasma","oral, 300 mg once daily, steady state, geometric mean",7.57 µg·h/mL
CC(C)C[C@H](NC(=O)[C@H](CCc1ccccc1)NC(=O)CN1CCOCC1)C(=O)N[C@@H](Cc1ccccc1)C(=O)N[C@@H](CC(C)C)C(=O)[C@@]1(C)CO1,,"human patients, plasma","intravenous infusion 10 min, 27 mg/m^2, day 16 of cycle 1, KRd regimen",0.444 ± 0.056 µg·h/mL
C=C(C)[C@@H]1CC[C@]2(NCCN3CCS(=O)(=O)CC3)CC[C@]3(C)[C@H](CC[C@@H]4[C@@]5(C)CC=C(C6=CC[C@@](CF)(C(=O)O)CC6)C(C)(C)[C@@H]5CC[C@]43C)[C@@H]12,,"healthy human volunteers, plasma","oral, 200 mg, tablet, moderate-fat state, mean",40.7 µg·h/mL
CNCc1ccc(-c2[nH]c3cc(F)cc4c3c2CCNC4=O)cc1,,"human patients, plasma","oral, 80 mg once daily, day 15, 24 h, steady state, arithmetic mean",1.74 µg·h/mL
COc1cccc(-c2ccc(NC(=O)C3=C(C(=O)O)CCC3)c(F)c2)c1,,"human, male, plasma","oral, 40 mg once daily, day 13, geometric mean",285 µg·h/mL
COc1cc2c(cc1OC)CN(CCc1ccc(NC(=O)c3cc(OC)c(OC)cc3NC(=O)c3cnc4ccccc4c3)cc1)CC2,LC-MS,"human, venous plasma","intravenous infusion, 2 mg/kg, 0-4 h",2.61 µg·h/mL and 3.42 µg·h/mL and 2.65 µg·h/mL and 2.71 µg·h/mL
NCCCS(=O)(=O)O,,"human, plasma","oral, 100 mg loose-filled capsule, single dose",3.27 ± 1.13 µg·h/mL
O=C(O)CNC(=O)c1c(O)c2ccccc2n(OCC2CC2)c1=O,LC-MS/MS,"human, blood","oral, 200 mg multiple doses",39.4 ± 12.3 µg·h/mL
CC[C@H](C)[C@H](NC(=O)[C@H](Cc1ccccc1)NC(=O)[C@H](CCC(=O)O)NC(=O)[C@H](CCCCNC(=O)COCCOCCNC(=O)COCCOCCNC(=O)CC[C@H](NC(=O)CCCCCCCCCCCCCCCCC(=O)O)C(=O)O)NC(=O)[C@H](C)NC(=O)[C@H](C)NC(=O)[C@H](CCC(N)=O)NC(=O)CNC(=O)[C@H](CCC(=O)O)NC(=O)[C@H](CC(C)C)NC(=O)[C@H](Cc1ccc(O)cc1)NC(=O)[C@H](CO)NC(=O)[C@H](CO)NC(=O)[C@@H](NC(=O)[C@H](CC(=O)O)NC(=O)[C@H](CO)NC(=O)[C@@H](NC(=O)[C@H](Cc1ccccc1)NC(=O)[C@@H](NC(=O)CNC(=O)[C@H](CCC(=O)O)NC(=O)C(C)(C)NC(=O)[C@@H](N)Cc1cnc[nH]1)[C@@H](C)O)[C@@H](C)O)C(C)C)C(=O)N[C@@H](C)C(=O)N[C@@H](Cc1c[nH]c2ccccc12)C(=O)N[C@@H](CC(C)C)C(=O)N[C@H](C(=O)N[C@@H](CCCNC(=N)N)C(=O)NCC(=O)N[C@@H](CCCNC(=N)N)C(=O)NCC(=O)O)C(C)C,,"human type 2 diabetes, plasma","subcutaneous, 0.5 mg, 840 h, added: 175 U insulin icodec",2.42 µM·h
CCCC[C@H](NC(C)=O)C(=O)N[C@H]1CCC(=O)NC[C@@H](C(=O)N[C@@H](Cc2c[nH]c3ccccc23)C(N)=O)NC(=O)[C@H](CCCNC(=N)N)NC(=O)[C@@H](Cc2ccccc2)NC(=O)[C@H](Cc2c[nH]cn2)NC1=O,,"healthy human, both sexes, plasma","subcutaneous, 1.0 mg once daily, day 1, arithmetic mean",0.0494 µg·h/mL
C=CC(=O)Nc1cc(Nc2ncc(C(=O)OC(C)C)c(-c3cn(C)c4ccccc34)n2)c(OC)cc1N(C)CCN(C)C,,"human, fasted","oral, 20 mg single dose, geometric mean",0.059 µg·h/mL
CN(CCOc1ccc(CC2SC(=O)NC2=O)cc1)c1ccccn1 (stereo not shown),,"human, both sexes, plasma","oral, 4 mg alone, 24 h, day 1, geometric mean",1440 µg·h/mL
CC(C)[C@H](N)C(=O)NCCCS(=O)(=O)O,,"human, both sexes, plasma","oral, 300 mg capsule",9.61 ± 2.68 µg·h/mL
CNc1nc(Nc2ccc(-n3cnc(C)n3)c(OC)c2)nc2c1CC[C@H]2c1ccc(F)cc1,,human,"oral, 50 mg once daily, day 14, multiple ascending dose",4.22 µg·h/mL

# Excerpt of the above:
Compound,test,test system,conditions,AUC(0-t)
O=C(NCCN1CCCC1)c1cc(-c2ccc(CN3CCOCC3)cc2)nc2ccc(F)cc12,LC-MS/MS,"human, whole blood","oral, 100 mg, single dose, geometric mean",1.25 µg·h/mL
O=C(O)CC[C@H]1CC[C@@](c2cc(F)ccc2F)(S(=O)(=O)c2ccc(Cl)cc2)CC1,,"human patients, plasma","oral, 1000 mg/m2/week",1400 to 2910 µg·h/mL
CN[C@@H]1COc2c(S(=O)(=O)NC(=O)Nc3c4c(cc5c3CCC5)CCC4)cnn2C1,,human,"oral, 600 mg, high-fat meal, geometric LS mean",147 µg·h/mL
